Measured values of several laboratories.
Lines come from different studies, so protocols differ. ± gives the spread as reported.
OGT: UDP-N-acetylglucosamine--peptide N-acetylglucosaminyltransferase 110 kDa subunit (OGT, Homo sapiens, UniProt O15294)
UniProt O15294, sequence (whole entry, looked up): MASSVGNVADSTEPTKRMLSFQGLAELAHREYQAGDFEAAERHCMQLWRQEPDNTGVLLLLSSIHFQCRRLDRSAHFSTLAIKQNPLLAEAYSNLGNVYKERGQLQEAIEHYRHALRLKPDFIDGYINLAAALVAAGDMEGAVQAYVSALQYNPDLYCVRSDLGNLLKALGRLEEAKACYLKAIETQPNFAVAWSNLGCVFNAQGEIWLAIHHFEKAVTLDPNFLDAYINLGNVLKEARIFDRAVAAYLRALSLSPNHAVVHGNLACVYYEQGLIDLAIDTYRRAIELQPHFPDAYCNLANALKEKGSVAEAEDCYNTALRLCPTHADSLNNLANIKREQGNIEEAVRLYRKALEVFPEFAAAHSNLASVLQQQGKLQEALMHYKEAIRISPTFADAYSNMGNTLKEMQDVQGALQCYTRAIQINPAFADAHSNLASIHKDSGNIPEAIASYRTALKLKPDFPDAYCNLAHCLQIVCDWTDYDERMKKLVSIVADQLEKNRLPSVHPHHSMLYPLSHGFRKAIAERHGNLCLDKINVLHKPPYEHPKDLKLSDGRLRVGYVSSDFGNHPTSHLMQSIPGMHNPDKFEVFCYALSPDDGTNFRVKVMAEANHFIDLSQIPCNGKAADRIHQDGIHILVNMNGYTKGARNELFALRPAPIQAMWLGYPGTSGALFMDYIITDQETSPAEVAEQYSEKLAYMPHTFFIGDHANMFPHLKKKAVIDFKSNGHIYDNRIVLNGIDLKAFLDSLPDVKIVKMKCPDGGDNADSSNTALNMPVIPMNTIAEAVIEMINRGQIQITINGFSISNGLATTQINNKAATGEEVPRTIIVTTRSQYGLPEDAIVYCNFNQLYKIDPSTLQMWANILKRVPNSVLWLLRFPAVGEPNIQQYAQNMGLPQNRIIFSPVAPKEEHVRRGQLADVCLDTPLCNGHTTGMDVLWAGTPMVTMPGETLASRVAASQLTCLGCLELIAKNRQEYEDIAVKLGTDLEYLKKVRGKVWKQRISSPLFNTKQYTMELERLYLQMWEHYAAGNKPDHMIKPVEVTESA
Metallo-beta-lactamase type 2: Metallo-beta-lactamase type 2 (Serratia marcescens, UniProt P52699)
NNMT: Nicotinamide N-methyltransferase (NNMT, Homo sapiens, UniProt P40261)
UniProt P40261, sequence (whole entry, looked up): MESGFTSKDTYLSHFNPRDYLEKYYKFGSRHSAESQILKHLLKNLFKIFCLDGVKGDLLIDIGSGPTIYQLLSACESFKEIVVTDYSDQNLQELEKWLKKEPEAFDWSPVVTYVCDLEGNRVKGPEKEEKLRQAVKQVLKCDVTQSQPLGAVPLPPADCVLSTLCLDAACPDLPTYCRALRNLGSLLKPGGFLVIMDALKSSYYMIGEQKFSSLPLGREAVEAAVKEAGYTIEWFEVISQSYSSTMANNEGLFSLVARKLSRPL
DPP4: Dipeptidyl peptidase 4 (DPP4, Homo sapiens, UniProt P27487)
UniProt P27487, sequence (whole entry, looked up): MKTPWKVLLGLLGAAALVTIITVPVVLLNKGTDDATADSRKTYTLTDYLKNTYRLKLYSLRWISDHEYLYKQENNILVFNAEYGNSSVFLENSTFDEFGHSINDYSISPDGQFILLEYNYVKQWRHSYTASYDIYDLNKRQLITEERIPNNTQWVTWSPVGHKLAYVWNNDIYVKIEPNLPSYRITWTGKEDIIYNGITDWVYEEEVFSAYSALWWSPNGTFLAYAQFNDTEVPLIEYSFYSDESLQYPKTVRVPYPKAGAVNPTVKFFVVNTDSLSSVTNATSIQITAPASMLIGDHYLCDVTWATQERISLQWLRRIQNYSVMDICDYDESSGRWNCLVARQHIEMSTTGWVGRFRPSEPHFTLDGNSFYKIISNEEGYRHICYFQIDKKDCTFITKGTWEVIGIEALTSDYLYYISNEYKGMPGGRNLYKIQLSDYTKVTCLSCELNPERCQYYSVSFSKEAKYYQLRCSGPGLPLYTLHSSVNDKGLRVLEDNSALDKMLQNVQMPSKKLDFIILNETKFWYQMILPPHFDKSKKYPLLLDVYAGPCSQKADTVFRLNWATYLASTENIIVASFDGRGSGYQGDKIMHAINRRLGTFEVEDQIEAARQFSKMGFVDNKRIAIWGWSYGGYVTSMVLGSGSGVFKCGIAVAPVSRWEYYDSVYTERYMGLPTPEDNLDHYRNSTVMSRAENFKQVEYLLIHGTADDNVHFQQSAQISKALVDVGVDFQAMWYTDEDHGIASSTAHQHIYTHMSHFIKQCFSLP
PDIA3: Protein disulfide-isomerase A3 (PDIA3, Homo sapiens, UniProt P30101)
UniProt P30101, sequence (whole entry, looked up): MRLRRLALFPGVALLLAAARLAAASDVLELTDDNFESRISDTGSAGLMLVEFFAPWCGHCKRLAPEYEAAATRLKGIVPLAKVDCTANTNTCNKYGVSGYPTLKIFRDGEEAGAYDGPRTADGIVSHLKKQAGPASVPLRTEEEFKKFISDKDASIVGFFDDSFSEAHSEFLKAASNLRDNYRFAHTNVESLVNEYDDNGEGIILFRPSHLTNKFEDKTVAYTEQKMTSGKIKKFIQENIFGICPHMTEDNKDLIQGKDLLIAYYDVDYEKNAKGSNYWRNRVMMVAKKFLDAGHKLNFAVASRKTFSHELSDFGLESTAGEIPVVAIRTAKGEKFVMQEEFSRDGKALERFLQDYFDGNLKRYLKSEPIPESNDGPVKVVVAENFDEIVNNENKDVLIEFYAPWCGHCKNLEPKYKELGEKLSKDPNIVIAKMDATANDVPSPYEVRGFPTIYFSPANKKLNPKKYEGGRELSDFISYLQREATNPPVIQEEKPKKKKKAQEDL
KLRK1 with MICA: NKG2-D type II integral membrane protein, with MICA (KLRK1, Homo sapiens, UniProt P26718)
UniProt P26718, sequence (whole entry, looked up): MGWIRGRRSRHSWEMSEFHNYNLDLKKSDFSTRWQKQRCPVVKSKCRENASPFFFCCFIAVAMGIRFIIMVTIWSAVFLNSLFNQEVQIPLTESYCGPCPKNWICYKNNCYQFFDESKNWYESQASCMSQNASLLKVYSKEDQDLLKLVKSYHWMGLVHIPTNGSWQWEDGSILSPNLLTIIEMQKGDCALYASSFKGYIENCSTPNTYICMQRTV
UniProt P01901, sequence (whole entry, looked up): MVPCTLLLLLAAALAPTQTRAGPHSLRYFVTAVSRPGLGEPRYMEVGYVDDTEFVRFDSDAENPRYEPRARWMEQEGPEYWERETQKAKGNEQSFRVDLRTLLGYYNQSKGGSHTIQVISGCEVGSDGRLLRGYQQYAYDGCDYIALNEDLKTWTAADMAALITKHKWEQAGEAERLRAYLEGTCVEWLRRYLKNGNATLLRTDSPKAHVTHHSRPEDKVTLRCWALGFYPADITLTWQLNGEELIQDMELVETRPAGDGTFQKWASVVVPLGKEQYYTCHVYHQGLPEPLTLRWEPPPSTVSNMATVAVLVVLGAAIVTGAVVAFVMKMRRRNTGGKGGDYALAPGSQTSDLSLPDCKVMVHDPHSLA
UniProt Q920B6, sequence (whole entry, unmodified, looked up): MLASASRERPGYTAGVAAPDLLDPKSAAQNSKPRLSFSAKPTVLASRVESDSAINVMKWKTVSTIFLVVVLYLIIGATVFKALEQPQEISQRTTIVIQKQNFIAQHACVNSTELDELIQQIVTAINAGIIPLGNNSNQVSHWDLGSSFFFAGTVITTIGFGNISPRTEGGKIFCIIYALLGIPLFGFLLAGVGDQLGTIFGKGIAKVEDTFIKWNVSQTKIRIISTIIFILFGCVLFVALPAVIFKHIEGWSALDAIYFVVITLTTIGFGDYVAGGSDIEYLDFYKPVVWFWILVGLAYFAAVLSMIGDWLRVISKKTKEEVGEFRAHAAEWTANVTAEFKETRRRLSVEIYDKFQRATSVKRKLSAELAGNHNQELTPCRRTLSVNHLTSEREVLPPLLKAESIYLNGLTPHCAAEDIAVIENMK
UniProt P05067, sequence (whole entry, looked up): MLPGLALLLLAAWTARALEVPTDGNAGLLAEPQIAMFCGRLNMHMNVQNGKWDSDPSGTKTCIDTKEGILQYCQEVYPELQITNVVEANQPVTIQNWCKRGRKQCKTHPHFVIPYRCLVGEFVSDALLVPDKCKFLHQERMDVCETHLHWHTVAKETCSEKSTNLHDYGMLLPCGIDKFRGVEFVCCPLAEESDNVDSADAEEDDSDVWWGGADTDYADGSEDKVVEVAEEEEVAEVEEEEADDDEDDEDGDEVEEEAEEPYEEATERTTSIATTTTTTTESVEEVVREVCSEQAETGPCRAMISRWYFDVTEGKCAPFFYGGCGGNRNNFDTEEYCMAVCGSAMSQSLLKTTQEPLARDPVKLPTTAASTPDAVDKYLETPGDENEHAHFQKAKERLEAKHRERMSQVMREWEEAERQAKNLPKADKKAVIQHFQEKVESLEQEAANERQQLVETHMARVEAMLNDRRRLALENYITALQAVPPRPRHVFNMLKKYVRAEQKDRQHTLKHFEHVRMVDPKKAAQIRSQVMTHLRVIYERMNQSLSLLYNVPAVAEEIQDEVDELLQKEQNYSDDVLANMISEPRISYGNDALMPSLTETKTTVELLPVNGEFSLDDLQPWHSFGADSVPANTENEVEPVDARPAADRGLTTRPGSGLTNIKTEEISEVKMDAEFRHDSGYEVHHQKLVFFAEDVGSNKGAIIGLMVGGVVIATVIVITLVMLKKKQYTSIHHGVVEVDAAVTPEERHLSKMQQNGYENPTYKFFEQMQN
UniProt P63252, sequence (whole entry, looked up): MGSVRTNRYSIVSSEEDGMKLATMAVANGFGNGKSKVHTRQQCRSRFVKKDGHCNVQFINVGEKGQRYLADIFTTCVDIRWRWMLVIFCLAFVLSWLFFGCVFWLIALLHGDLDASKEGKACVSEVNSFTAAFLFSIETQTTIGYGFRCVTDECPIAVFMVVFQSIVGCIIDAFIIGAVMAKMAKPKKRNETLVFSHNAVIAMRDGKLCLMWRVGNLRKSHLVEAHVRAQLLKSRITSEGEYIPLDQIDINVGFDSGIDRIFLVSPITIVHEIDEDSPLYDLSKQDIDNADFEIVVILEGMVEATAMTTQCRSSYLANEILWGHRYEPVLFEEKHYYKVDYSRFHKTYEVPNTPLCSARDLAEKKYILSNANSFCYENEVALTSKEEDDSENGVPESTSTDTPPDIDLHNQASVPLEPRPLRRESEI
UniProt O75884, sequence (whole entry, looked up): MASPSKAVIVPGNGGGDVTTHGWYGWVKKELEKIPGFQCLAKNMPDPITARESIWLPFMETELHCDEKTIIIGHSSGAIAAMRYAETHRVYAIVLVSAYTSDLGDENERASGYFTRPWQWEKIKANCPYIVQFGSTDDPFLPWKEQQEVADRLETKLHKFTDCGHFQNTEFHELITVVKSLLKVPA

SMILES | target | assay | system | conditions | IC50
CC(=O)N[C@@H]1[C@@H](O)[C@H](O)[C@@H](CO)O[C@@H]1SP(=O)(O)OP(=O)(O)OC[C@H]1O[C@@H](n2ccc(=O)[nH]c2=O)[C@H](O)[C@@H]1O | OGT | enzyme activity, inhibitor, radiometric |  |  | 93 µM
CC[N+](CC)(CC)CC | Potassium channel protein kcv, one L70A, three L70Y (A250R, Paramecium bursaria Chlorella virus 1, UniProt Q84568, L70A/L70Y) |  |  |  | 1800 ± 200 µM
CC(C)Cn1nnc(-c2ccccc2NC(=O)[C@H](C)CS)n1 | Metallo-beta-lactamase type 2 | inhibitor |  | 10 min preincubation, together with: FC5 substrate | 1.34 µM
CC(C)[C@H](NC(=O)[C@@H]1CNC(=O)NCCCC[C@@H](NC(=O)[C@@H](N)Cc2ccc(O)cc2)C(=O)NCC(=O)N[C@@H](Cc2ccccc2)C(=O)N1)C(=O)N[C@H](C(=O)NCC(=O)NCCNC(N)=O)C(C)C | Oprd1 (Mus musculus, UniProt P32300) | contraction inhibition, agonist | mouse, isolated vas deferens |  | 0.00185 ± 0.0001 µM
CC(=O)CCC1C(=O)NC(C(C)C)C(=O)NC(Cc2cccc(O)c2)C(=O)N2CCCC(N2)C(=O)OC(C(C)=CC=CC(=O)N2CCCCO2)CC=CC=CC(O)C(C)C1O (stereo not drawn) | ABCB1 (Homo sapiens, UniProt P08183) | P-glycoprotein transport, inhibitor | MDR1-MDCK | 60 min, pH 7.4, together with: loperamide 5 µM | > 50 µM
CC[C@H](C)[C@@H]1NC(=O)[C@H](C)NC(=O)[C@H](CC(C)C)NC(=O)[C@H](Cc2ccc(O)cc2)NC(=O)[C@H](CCCNC(=N)N)NC(=O)CNC(=O)[C@H](CC(N)=O)NC(=O)[C@H](CC(C)C)NC(=O)[C@H]([C@@H](C)CC)NC(=O)[C@H](Cc2ccccc2)NC(=O)[C@H](C)NC(=O)[C@H]([C@@H](C)CC)NC(=O)[C@H]([C@@H](C)O)NC(=O)[C@@H](Cc2ccc(O)cc2)NC(=O)CSC[C@@H](C(=O)NCC(N)=O)NC(=O)[C@H](CCCNC(=N)N)NC(=O)[C@H](C(C)C)NC1=O | NNMT | enzyme activity, inhibitor, mass spectrometry |  |  | 1.21 µM
N[C@@H](CC(=O)O)C(=O)N[C@@H](Cc1ccccc1)B(O)O | Serine hydrolase RBBP9 (Homo sapiens, UniProt O75884) | enzyme activity, inhibitor |  |  | 1.08 µM
Cc1ccc(-c2nc3c(=O)n(C)c(=O)nc-3n(C)n2)cc1 | TPR (Trypanosoma brucei brucei, UniProt P39051) | inhibitor, DTNB-coupled colourimetric |  | together with: substrate at Km | 8.6 µM
CC(C)[C@H](NC(=O)[C@H](Cc1c[nH]c2ccccc12)NC(=O)[C@@H](N)Cc1ccccc1)C(=O)N1CCC[C@H]1C(=O)O | DPP4 | enzyme activity, inhibitor, absorbance |  |  | 342 µM
CN(C)C(=O)C1CN1S(=O)(=O)c1ccc(F)cc1F (stereo not drawn) | PDIA3 | enzyme activity, inhibitor, absorbance |  | pH 7.6 | 24.6 µM
NC(=O)c1cccc(CCN(CC[C@H](N)C(=O)O)C[C@H]2O[C@@H](n3cnc4c(N)ncnc43)[C@H](O)[C@@H]2O)c1 | N6-adenosine-methyltransferase catalytic subunit, with METTL14 (METTL3, Homo sapiens, UniProt Q86U44) | enzyme activity, inhibitor, radiometric |  | METTL3-METTL14 complex | 10 µM
COc1ccc(-c2ccc(OC)c(NC(=O)[C@H](C)CS)c2)nn1 | Metallo-beta-lactamase type 2 | inhibitor |  | 10 min preincubation, together with: FC5 substrate | 1.56 µM
C[C@H](CC(=O)C[C@@H](C)[C@H]1C[C@H](O)[C@@]2(C)C3=C(C(=O)C[C@]12C)[C@@]1(C)CCC(=O)C(C)(C)[C@@H]1C[C@@H]3O)C(=O)O | DPP4 | enzyme activity, inhibitor |  |  | 81.9 µM
COC(=O)C=CCCC(NC(=O)c1ccncc1C(=O)O)C(=O)NC(C(=O)N1CC(=O)CC1C(=O)NC(C(=O)NC(C(N)=O)C1CCCCC1)C1CCCCC1)C(C)(C)C (stereo not drawn) | Coagulation factor XIII A chain (Canis lupus familiaris, UniProt A0A8I3S1X8) | isopeptidase activity, inhibitor |  | dog enzyme, together with: substrate A101 | 0.028 ± 0.0006 µM
CC(C)C[C@H](NC(=O)[C@H](CC(N)=O)NC(=O)[C@@H](NC(=O)[C@H](Cc1ccccc1)NC(=O)[C@H](CC(C)C)NC(=O)[C@@H]1CCCN1C(=O)[C@H](C)NC(=O)[C@@H](N)Cc1ccccc1)[C@@H](C)O)C(=O)O | H-2 class I histocompatibility antigen, K-B alpha chain, 24 (H2-K1, Mus musculus, UniProt P01901) | peptide binding, competitor |  | 2 d, room temperature, together with: radiolabelled peptide | < 0.0005 µM
CNC(=O)N=C(NCCC[C@@H]1NC(=O)[C@@H](C)NC(=O)C[C@@H](C(=O)O)NC(=O)C[C@@H](C(=O)O)NC(=O)[C@H](Cc2ccccc2)N(C)C1=O)NC(=O)NC | Endochitinase B1 (Aspergillus fumigatus, UniProt Q873X9) | enzyme activity, inhibitor, fluorometric |  | 10 min, pH 5.5, 37 °C, together with: 20 µM 4-MU-chitobiose | 50 µM
COc1ccccc1C(NS(=O)(=O)c1cc2ccc(O)nc2cc1Cl)C(=O)N(CC(=O)NCCn1cc(COCCOCCOCCNc2cccc3c2C(=O)N(C2CCC(=O)NC2=O)C3=O)nn1)Cc1cccs1 (mixture of isomers) | OGT | enzyme activity, inhibitor, fluorescence |  |  | 0.68 µM

SMILES | target | assay | system | conditions | IC50
O=C(O)c1ccccc1-c1c2ccc(=O)c([As]3SCCS3)c-2oc2c([As]3SCCS3)c(O)ccc12 | Ptpn11 (Mus musculus, UniProt P35235) | enzyme activity, inhibitor, absorbance |  | pH 7, with preincubation | 0.074 µM
CC(C)C[C@H](NC(=O)[C@H](C)NC(=O)[C@H](CO)NC(=O)[C@H](CC(=O)O)NC(=O)[C@H](CCC(=O)O)NC(=O)[C@@H]1CCCN1C(=O)[C@H](CC(=O)O)NC(=O)[C@@H](N)CCC(=O)O)C(=O)N[C@@H](CC(C)C)C(=O)N[C@@H](CCC(=O)O)C(=O)N[C@@H](CC(=O)O)C(=O)N1CCC[C@H]1C(=O)O | HLA-DRA/HLA-DRB3 (Homo sapiens, UniProt P01903+P79483) | binding, competition binding | purified HLA-DR | 48 h, together with: radiolabelled probe peptide 0.1-1 nM | > 5 µM
CC[C@H](C)[C@H](NC(=O)[C@H](CC(=O)O)NC(=O)[C@H](CCCNC(=N)N)NC(=O)[C@H](Cc1c[nH]c2ccccc12)NC(=O)[C@@H](NC(=O)[C@H](CO)NC(=O)[C@H](CC(N)=O)NC(=O)[C@H](CC(N)=O)NC(=O)[C@@H](NC(=O)[C@H](CCCNC(=N)N)NC(=O)[C@H](Cc1c[nH]cn1)NC(=O)[C@@H](N)CCCNC(=N)N)[C@@H](C)CC)[C@@H](C)CC)C(=O)N[C@@H](Cc1ccccc1)C(=O)N[C@@H](CC(C)C)C(=O)N[C@@H](CCCCN)C(=O)N[C@@H](CCCNC(=N)N)C(=O)N[C@@H](CCCCN)C(=O)O | Sensor histidine kinase ComD (Streptococcus gordonii, UniProt O33646) |  |  |  | > 1 µM
CCCCn1nnc(-c2cccc(NC(=O)[C@H](C)CS)c2)n1 | blaNDM-1 (Klebsiella pneumoniae, UniProt C7C422) | enzyme activity, inhibitor, fluorescence |  | with preincubation | 2.65 µM
C[C@@H](O)[C@H](NC(=O)[C@H](CCCCN)NC(=O)[C@H](Cc1c[nH]c2ccccc12)NC(=O)CN)C(=O)N[C@@H](CCCNC(=N)N)C(=O)NC(C)(C)C(=O)N[C@@H](CCCNC(=N)N)C(=O)NC(C)(C)C(=O)N[C@H](C(=O)N[C@@H](CO)C(=O)N[C@@H](Cc1c[nH]cn1)C(=O)N[C@@H](Cc1ccc(O)cc1)C(=O)NCC(=O)O)[C@@H](C)O | Integrin alpha-2, with integrin beta-1 (Homo sapiens, UniProt P17301) |  | K562 expressing integrin α2 | 60 min, 37 °C | 0.0007 µM
CC(=O)C(NC(=O)c1ccccc1-c1ccc(C(F)(F)F)cc1)c1cccc(C(F)(F)F)c1 (stereo not drawn) | KLRK1 with MICA | ligand binding, inhibitor, TR-FRET | HEK293 expressing NKG2D and DAP10 | together with: MICA-Alexa647 | > 20 µM
CC(C)C[C@H](NC(=O)[C@H](C)NC(=O)[C@H](CC(N)=O)NC(=O)[C@H](CCC(=O)O)NC(=O)[C@@H](N)CCCCN)C(=O)N[C@@H](CC(C)C)C(=O)N[C@@H](CCCNC(=N)N)C(=O)N[C@@H](Cc1ccc(O)cc1)C(=O)N[C@@H](CC(C)C)C(=O)N[C@@H](CC(C)C)C(=O)N[C@@H](CC(=O)O)C(=O)N[C@@H](CCCCN)C(=O)N[C@@H](CC(=O)O)C(=O)NCC(=O)NCC(=O)NCC(=O)N[C@@H](CCCNC(=N)N)C(=O)N[C@@H](CCCNC(=N)N)C(=O)N[C@@H](CCCNC(=N)N)C(=O)N[C@@H](CCCNC(=N)N)C(=O)N[C@@H](CCCNC(=N)N)C(=O)N[C@@H](CCCNC(=N)N)C(N)=O | Vitamin D3 receptor (VDR, Homo sapiens, UniProt P11473) | reporter gene, antagonist, dual-luciferase | MCF7 | 16 h, together with: calcitriol 30 nM | > 30 µM
CC[C@@H]1CN2CCc3c([nH]c4cccc(OC)c34)[C@@H]2C[C@@H]1/C(=C\OC)C(=O)OC | UGT2B7 (Homo sapiens, UniProt P16662) | enzyme activity, inhibitor |  | 2 h, pH 7.4 | > 100 µM
N=C(Nc1ccc(OCCCCCOc2ccc(NC(=N)c3ccccc3)cc2)cc1)c1ccccc1 | KCNJ2 (Homo sapiens, UniProt P63252) | ion current, inhibitor |  |  | 1.3 µM
COc1ccc2nc(C)cc(OCC(=O)Nc3ccccc3OC)c2c1 | CYP2C19 (Homo sapiens, UniProt P33261) | inhibitor |  |  | 2 µM
CCCCC[N+](CCCCC)(CCCCC)CCCCC | Kcnk2 (Rattus norvegicus, UniProt Q920B6, L189C/T157C) | ion current, inhibitor, patch clamp |  |  | 8150 µM
COc1c(C(=O)/C=C(\O)c2ccccc2)ccc2c1C=CC(C)(C)O2 | APP (Homo sapiens, UniProt P05067) | amyloid aggregation, inhibitor, fluorescence |  |  | > 200 µM
CC(C)(C)c1ccc(S(=O)(=O)N2CC2C(N)=O)cc1 (stereo not drawn) | PDIA3 | enzyme activity, inhibitor, absorbance |  | pH 7.6 | 77 µM
CN(C)C(=O)[C@@H](NC(=O)c1ccccc1-c1ccc(C(F)(F)F)cc1)c1cccc(C(F)(F)F)c1 | KLRK1 with MICA |  |  |  | 1.2 ± 0.6 µM
CC[C@H](C)[C@@H]1NC(=O)[C@H](Cc2c[nH]cn2)NC(=O)[C@H](CC(N)=O)NC(=O)CNC(=O)[C@H](Cc2ccccc2)NC(=O)[C@H](CCCNC(=N)N)NC(=O)[C@H](C)NC(=O)[C@H](Cc2ccccc2)NC(=O)[C@H](C(C)C)NC(=O)[C@H](Cc2ccccc2)NC(=O)[C@@H](Cc2ccc(O)cc2)NC(=O)CSC[C@@H](C(=O)NCC(N)=O)NC(=O)[C@H](C)NC(=O)[C@H](CCCCN)NC(=O)[C@H]([C@@H](C)CC)NC(=O)[C@H]([C@@H](C)CC)NC(=O)[C@H](C(C)C)NC1=O | NNMT | enzyme activity, inhibitor, mass spectrometry |  |  | 1.24 µM
C[C@H](CCC(=O)NCC(=O)O)[C@H]1CC[C@H]2[C@@H]3CC[C@@H]4C[C@H](O)CC[C@]4(C)[C@H]3CC[C@]12C | SHMT2 (Homo sapiens, UniProt P34897) | serine to glycine conversion, inhibitor |  | pH 7.5, 1% DMSO, together with: L-serine 1 mM, THF 0.2 mM | 0.15 µM
